Measurements from different studies.
Each line is one published result; not all experiments were run side by side. “And” joins repeats or separate records; there may be more than shown. Numbers after ± are the reported error.

CCCC[C@H](NC(C)=O)C(=O)N[C@H]1CCC(=O)NC[C@@H](C(=O)N[C@@H](Cc2c[nH]c3ccccc23)C(N)=O)NC(=O)[C@H](CCCNC(=N)N)NC(=O)[C@@H](Cc2ccccc2)NC(=O)[C@H](Cc2c[nH]cn2)NC1=O — Tmax (beagle dog, female, plasma; subcutaneous, 40.0 mg/kg daily, day 14): 0.38 h
Cc1nc2cccc(OCC(C)(C)C(=O)NC(C)C)c2c(N)c1C(=O)O — dose-normalised Cmax (male Sprague-Dawley rat, plasma; oral gavage, 30 mg/kg single dose): 1.29 ng/mL/mg/kg
CC(C)(O/N=C(\C(=O)N[C@H]1CN2CC(C(=O)NCCN3C(=O)c4cc(O)c(O)cc4C3=O)=C(C(=O)O)N2C1=O)c1nc(N)sc1Cl)C(=O)O — plasma concentration (CD-1 mouse, plasma; subcutaneous, 50 mg/kg, 8 h): 1000 ng/mL
CC(C)OC(=O)[C@H](CCC(=O)C=[N+]=[N-])NC(=O)O[C@H](C)OC(=O)C(C)(C)C — remaining compound (mouse plasma; 10 µM, 60 min, 37 °C): 0%
[2H]C([2H])([2H])Oc1cc2c(cc1OC([2H])([2H])[2H])C1CC(=O)C(CC(C)C)CN1CC2 (stereo not drawn) — geometric mean ratio AUC0-t (refers to: β-HTBZ; human, fasted; oral, 15 mg single dose; baseline: tetrabenazine 25 mg fasted): 99.6%
Clc1ccc(CNc2ncnc3ccccc23)cc1 — pKa1 (UV-metric titration; water; 25.0 °C): 6.02 ± 0.01
CCN1CC(=O)NC(CC(C)C)C(=O)N(C)C(C)C(=O)NC(CC(C)C)C(=O)N2CCCC2C(=O)N(CC2CCCCC2)CC(=O)NC(CC(C)C)C(=O)N(C)C(C)C(=O)NC(Cc2ccccc2)C(=O)N2CCCC2C1=O (stereo not drawn) — oral bioavailability (mouse; oral, dose not given, added: GF120918 pretreatment): 7%
CC[C@H](C)[C@@H]1NC(=O)[C@H](Cc2ccc(O)cc2)NC(=O)[C@@H](N)CSSC[C@@H](C(=O)N2CCC[C@H]2C(=O)N[C@@H](CC(C)C)C(=O)NCC(N)=O)NC(=O)[C@H](CC(N)=O)NC(=O)[C@H](CCC(N)=O)NC1=O — AUC(0-t) (microdialysis, radioimmunoassay; C57BL/6J male mice, wild type, hippocampus extracellular fluid; intranasal, 12 µg, total area from zero): 173 ± 114 pg·30 min/sample
CCCCC1(CCCC)CN(c2ccccc2)c2cc(SC)c(OCC(=O)N[C@@H](C(=O)NCC(=O)O)c3ccccc3)cc2S(=O)(=O)C1 — AUC(0-t) (human, plasma; oral, 10 mg once daily, day 1, geometric mean): 1.13 ng·h/mL
CC(C)c1nc(CN(C)C(=O)N[C@H](C(=O)N[C@@H](Cc2ccccc2)C[C@H](O)[C@H](Cc2ccccc2)NC(=O)OCc2cncs2)C(C)C)cs1 — AUC(0-t) geometric mean (healthy men, plasma; 600 mg single dose, added: amenamevir 1200 mg): 72600 ng·h/mL
CS(=O)(=O)n1cc2c(n1)CN([C@H]1CO[C@H](c3cc(F)ccc3F)[C@@H](N)C1)C2 — plasma concentration (healthy Japanese men, fasted, plasma; oral, 25 mg single dose, 168 h): 20 nM
COc1cc2c(cc1OC)CN(CCc1ccc(NC(=O)c3cc(OC)c(OC)cc3NC(=O)c3cnc4ccccc4c3)cc1)CC2 — plasma concentration (Wistar Unilever rat, plasma; intravenous, 7.5 mg/kg, 3 h): 911 ng/mL
Cc1c2oc3c(C)ccc(C(=O)N[C@@H]4C(=O)N[C@H](C(C)C)C(=O)N5CCC[C@H]5C(=O)N(C)CC(=O)N(C)[C@@H](C(C)C)C(=O)O[C@@H]4C)c3nc-2c(C(=O)N[C@@H]2C(=O)N[C@H](C(C)C)C(=O)N3CCC[C@H]3C(=O)N(C)CC(=O)N(C)[C@@H](C(C)C)C(=O)O[C@@H]2C)c(N)c1=O — half-life (mouse, Abcc2−/− knockout, FVB background, liver; intravenous, 0.5 mg/kg): 2.44 h
liraglutide — plasma protein binding (equilibrium dialysis; human plasma 50% diluted; 10 nM, 4 to 5 h, pH 7.4, 37 °C, inner-outer ratio 100:1): 99.3%
C[C@H]1C[C@H]2CSC(N)=N[C@@]2(c2nc(NC(=O)c3ccc(OC(F)F)cn3)cs2)CO1 — QTcF increase (human; projected supratherapeutic dose, upper confidence bound): < 10 ms
CC(C)=CCC[C@](C)(O[C@@H]1O[C@H](CO)[C@@H](O)[C@H](O)[C@H]1O)[C@H]1CC[C@]2(C)[C@@H]1[C@H](O)C[C@@H]1[C@@]3(C)CC[C@H](O)C(C)(C)[C@@H]3[C@@H](O[C@@H]3O[C@H](CO)[C@@H](O)[C@H](O)[C@H]3O)C[C@]12C — CL/F (Sprague Dawley rat, male, plasma; oral, 25 mg/kg, pure ginsenoside mixture in water): 742 ± 163 mL/min/kg
O=C1N=C(N2CCOCC2)CN1c1ccc(Cl)cc1 — terminal half-life (beagle dog, both sexes, plasma; oral, 30 mg/kg, tablets, fasted): 1.5 h
Cn1c(-c2ccc(C(N)=O)cc2F)nnc1C(C)(C)Oc1c(F)cc(Cl)cc1F — Cmax mean (healthy young Japanese subjects, plasma; oral, 10 mg once daily, day 18, 14 days dosing): 171 ng/mL
TWPKHFDKHTFYSILKLGKH-OH (C-acid) — brain uptake (peptide, male C57BL/6J mouse, brain; intravenous, 60 min, vascular blood washed out; baseline: injected dose): 0.042 ± 0.017%
CCCOc1ccc([C@H]2CNC(=O)N2c2ccc3[nH]cnc3c2)cc1 — apparent terminal half-life (human volunteers fasted, plasma; oral solution, 100 mg single dose, day 1, geometric mean): 2.47 h
des-acyl ghrelin (human) — brain/serum ratio (mouse, wild type, hypothalamus; intravenous, 10 min): 9.62 µL/g
COc1ccc2nc([S@@+]([O-])Cc3ncc(C)c(OC)c3C)[nH]c2c1 — adverse events (human healthy; 40 mg, throat irritation): 0%
CNCc1ccc(-c2cc(-c3nc(-c4ccc(S(=O)(=O)C(C)C)cc4)cnc3N)on2)cc1 — CL (mouse BALB/c female, plasma; intravenous, 60 mg/kg, from AUC(0-360)): 64.6 mL/min/kg
CC1(C)Oc2cc3oc(=O)ccc3cc2C[C@@H]1O — plasma ALT activity (male CD-1 mouse, plasma; oral gavage, 80 mg/kg daily, 4 weeks): 33.3 ± 21.2 U/L
O=C(c1nc2n(n1)[C@H](c1ccccc1)C[C@@H]2F)C1CC1 — concentration (human, plasma; oral, 5 mg, 24 h, single dose, fasted, healthy volunteers): 13.5 ng/mL
CCN1CCN(Cc2ccc(Nc3ncc(F)c(-c4cc(F)c5nc(C)n(C(C)C)c5c4)n3)nc2)CC1 — tmax (human, plasma; oral, 200 mg, single dose): ~6 h
Cc1cc(Nc2ncc(Cl)c(Nc3ccccc3S(=O)(=O)C(C)C)n2)c(OC(C)C)cc1C1CCNCC1 — Css,min total (human, plasma; oral, 450 mg/day with food, steady state after dose 9): 779 nM and 800 nM and 790 nM and 935 nM and 900 nM and 580 nM and 795 nM
NCCCC[C@@H]1NC(=O)[C@@H](Cc2c[nH]c3ccccc23)NC(=O)[C@H](c2ccccc2)NC(=O)[C@@H]2C[C@@H](OC(=O)NCCN)CN2C(=O)[C@H](Cc2ccccc2)NC(=O)[C@H](Cc2ccc(OCc3ccccc3)cc2)NC1=O — blood glucose (healthy human volunteers; subcutaneous, 1200 µg, 2 h, post-prandial): 146 mg/dL
CCc1cn([C@@H]2O[C@H](CO)[C@@H](O)[C@H]2O)c2ncnc(C)c12 — remaining compound (mouse liver microsomes; 30 min, added: NADPH): 95%
COC(=O)C[C@](O)(CCCC(C)(C)O)C(=O)O[C@@H]1C(OC)=C[C@]23CCCN2CCc2cc4c(cc2[C@H]13)OCO4 — concentration (CD1 mouse, plasma; oral, 1 mg/kg, 24 h): not detected
CNCc1ccc(-c2[nH]c3cc(F)cc4c3c2CCNC4=O)cc1 — AUC(0-t) (human patients, plasma; oral, 80 mg once daily, day 1, 24 h, single dose, arithmetic mean): 800 ng·h/mL
CC(C)C[C@H](NC(=O)[C@H](CCCNC(=N)N)NC(=O)[C@H](CC(N)=O)NC(=O)[C@H](CC(=O)O)NC(=O)[C@H](CCCNC(=N)N)NC(=O)CNC(=O)CNC(=O)CNC(=S)Nc1ccc(C[C@H]2CN(CC(=O)O)CCN(CC(=O)O)CCN2CC(=O)O)cc1)C(=O)N[C@@H](CC(N)=O)C(=O)N[C@H](C(=O)NCC(=O)NCC(=O)N[C@H](C(=O)N[C@@H](Cc1ccc(O)cc1)C(=O)N[C@@H](Cc1ccccc1)C(=O)N[C@@H](CC(C)C)C(=O)N[C@H](C(=O)N[C@H](C(=O)N[C@@H](CCCNC(=N)N)C(=O)N[C@@H](CCC(N)=O)C(=O)O)[C@@H](C)O)[C@@H](C)O)[C@@H](C)O)C(C)C [fluorine-18 labelled] — intact parent radiotracer (radio-HPLC; mouse (HepG2 tumour-bearing), HepG2 tumour; intravenous, 5.55 MBq, 1 h): 93 ± 2.98%
C[C@]12CC[C@@H]3c4ccc(O)cc4CC[C@H]3[C@@H]1C[C@@H](O)[C@@H]2O — mean serum concentration (GC-MS; breast cancer women on NSAI, serum; vaginal, 0.03 mg, 3 h, day 0): 0.0843 ng/mL

Some of these lines once more:
CS(=O)(=O)n1cc2c(n1)CN([C@H]1CO[C@H](c3cc(F)ccc3F)[C@@H](N)C1)C2 — plasma concentration (healthy Japanese men, fasted, plasma; oral, 25 mg single dose, 168 h): 20 nM
COc1cc2c(cc1OC)CN(CCc1ccc(NC(=O)c3cc(OC)c(OC)cc3NC(=O)c3cnc4ccccc4c3)cc1)CC2 — plasma concentration (Wistar Unilever rat, plasma; intravenous, 7.5 mg/kg, 3 h): 911 ng/mL
Cc1c2oc3c(C)ccc(C(=O)N[C@@H]4C(=O)N[C@H](C(C)C)C(=O)N5CCC[C@H]5C(=O)N(C)CC(=O)N(C)[C@@H](C(C)C)C(=O)O[C@@H]4C)c3nc-2c(C(=O)N[C@@H]2C(=O)N[C@H](C(C)C)C(=O)N3CCC[C@H]3C(=O)N(C)CC(=O)N(C)[C@@H](C(C)C)C(=O)O[C@@H]2C)c(N)c1=O — half-life (mouse, Abcc2−/− knockout, FVB background, liver; intravenous, 0.5 mg/kg): 2.44 h
